Measured values of several laboratories.
A part holds a random share of what one study measured.

Block 1
Target: Histone acetyltransferase KAT6A, both winged helices, GST fusion (KAT6A, Homo sapiens, UniProt Q92794, residues 1-181)
Technique: protein binding microarray
Form: double-stranded DNA, one strand shown
Medium: in vitro
Tested at: not given
Notes: 8-mer, flanks averaged, mean of 2 arrays, mostly near background
Baseline: not given
Reading: higher = stronger binding
Target sequence (chain): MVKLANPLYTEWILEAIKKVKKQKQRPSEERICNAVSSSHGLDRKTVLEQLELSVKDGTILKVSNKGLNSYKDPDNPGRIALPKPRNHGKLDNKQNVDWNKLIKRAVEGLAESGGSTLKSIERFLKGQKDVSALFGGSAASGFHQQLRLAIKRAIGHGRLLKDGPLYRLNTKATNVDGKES
With `CGTAGTTA` the E-score was 0.143.
The E-score of `ACGTCGGC` is reported as 0.178.
With `AAATGTCC` the E-score was 0.0351.
The E-score of `CTCCCGTC` is reported as 0.19.
`AGCTTTCC` gave an E-score of 0.0874.

Block 2
Target: Ras GTPase-activating protein-binding protein 1, RRM domain (G3BP1, Homo sapiens, UniProt Q13283)
UniProt Q13283, sequence (whole entry, looked up): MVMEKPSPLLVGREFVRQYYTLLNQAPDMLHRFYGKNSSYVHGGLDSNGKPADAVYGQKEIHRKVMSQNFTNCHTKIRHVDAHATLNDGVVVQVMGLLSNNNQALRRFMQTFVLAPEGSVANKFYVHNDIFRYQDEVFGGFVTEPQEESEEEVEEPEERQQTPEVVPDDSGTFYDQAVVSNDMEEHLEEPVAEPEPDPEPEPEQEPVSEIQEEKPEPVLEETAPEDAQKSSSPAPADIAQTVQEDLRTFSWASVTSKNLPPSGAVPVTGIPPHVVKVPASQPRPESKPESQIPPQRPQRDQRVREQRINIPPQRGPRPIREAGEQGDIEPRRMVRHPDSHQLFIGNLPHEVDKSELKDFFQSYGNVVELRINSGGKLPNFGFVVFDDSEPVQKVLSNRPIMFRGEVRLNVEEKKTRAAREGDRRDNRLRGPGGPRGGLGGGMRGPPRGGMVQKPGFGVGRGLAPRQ
Technique: RNA Bind-n-Seq
Form: RNA
Medium: in vitro
Tested at: 1 µM
Notes: whole 134-nt RNA, ends assumed
Together with: 150 mM KCl
Baseline: input library
Reading: higher = stronger binding
`GGGAGUUCUACAGUCCGACGAUCCAAGUCCUGUGCUACACAUCGUAUGUACCGAAUCGGGCCCGGCCCGGGCCCGGGGAAAGUAUUAUGUUACGCCGUUCGGAUCUGCACUUCUGGAAUUCUCGGGUGUCAAGG` gave a log2 enrichment of -0.466.
The log2 enrichment of `GGGAGUUCUACAGUCCGACGAUCUGGGAGGUGGAUUUUGUUUAUUUUUUUAGCUCAUUUCCAGGGGUGGGAAUUUUUUUUUAAUAUGUGUCAAGAAUAAAGUUGUUUUUGAAAUGGAAUUCUCGGGUGUCAAGG` is reported as 1.13.
With `GGGAGUUCUACAGUCCGACGAUCUGCAGGGUCUGGGUAGCAGCUGGGCUUCCAGCUUUCUCCUUGCACCUGACUUGGGCUUUUUUCUCCUCACAGGAUGGGCCUUGACGGCAUUGGAAUUCUCGGGUGUCAAGG` the log2 enrichment was -0.107.

Block 3
Target: Sal-like protein 4, full length isoform A (SALL4, Homo sapiens, UniProt Q9UJQ4, residues 1-1053)
UniProt Q9UJQ4, sequence (whole entry, looked up): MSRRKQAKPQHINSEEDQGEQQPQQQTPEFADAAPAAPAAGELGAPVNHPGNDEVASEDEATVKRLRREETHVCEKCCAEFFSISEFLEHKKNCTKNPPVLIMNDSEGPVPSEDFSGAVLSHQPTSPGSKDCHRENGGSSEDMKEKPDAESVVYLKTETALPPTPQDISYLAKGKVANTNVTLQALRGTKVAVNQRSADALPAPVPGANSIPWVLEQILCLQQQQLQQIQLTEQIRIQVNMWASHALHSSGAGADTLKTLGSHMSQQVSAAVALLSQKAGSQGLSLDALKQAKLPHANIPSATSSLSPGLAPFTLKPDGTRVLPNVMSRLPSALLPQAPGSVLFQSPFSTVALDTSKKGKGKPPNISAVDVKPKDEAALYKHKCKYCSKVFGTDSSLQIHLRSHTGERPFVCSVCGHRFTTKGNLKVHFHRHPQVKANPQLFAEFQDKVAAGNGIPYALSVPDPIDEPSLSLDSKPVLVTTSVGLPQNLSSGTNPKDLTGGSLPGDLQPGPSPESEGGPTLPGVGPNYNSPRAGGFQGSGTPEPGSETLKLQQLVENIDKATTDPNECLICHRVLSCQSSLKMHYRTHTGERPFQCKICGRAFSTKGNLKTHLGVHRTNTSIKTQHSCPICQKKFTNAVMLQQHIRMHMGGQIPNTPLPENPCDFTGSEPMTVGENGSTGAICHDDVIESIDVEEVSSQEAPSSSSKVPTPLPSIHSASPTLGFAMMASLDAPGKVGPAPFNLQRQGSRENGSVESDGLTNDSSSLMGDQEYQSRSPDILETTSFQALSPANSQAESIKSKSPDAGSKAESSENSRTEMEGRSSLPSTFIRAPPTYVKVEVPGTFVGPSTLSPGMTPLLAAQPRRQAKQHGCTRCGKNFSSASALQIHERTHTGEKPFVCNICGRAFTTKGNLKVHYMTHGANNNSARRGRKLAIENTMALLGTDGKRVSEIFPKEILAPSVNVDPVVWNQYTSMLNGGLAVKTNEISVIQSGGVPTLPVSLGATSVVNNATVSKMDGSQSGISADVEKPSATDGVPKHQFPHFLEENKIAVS
Technique: universal PBM
Form: double-stranded DNA, one strand shown
Medium: in vitro
Tested at: 600 nM
Notes: 8-mer, flanks averaged, mean of replicates
Reading: higher = stronger binding
With `GAGAAACA` the E-score was 0.213.
With `CGGCCCGC` the E-score was -0.375.
With `CATTTTCA` the E-score was 0.263.
`AGGTCTAT` gave an E-score of 0.0881.

Single results of other studies
`PhoQ, residues 284 288 289 292 302 303 SACGEM` has a fold induction of 15.6 (PhoP, residues 12 14 15 18 19 GQALL (Escherichia coli, UniProt P23836); Sort-seq, item: YFP reporter; E. coli; PhoQ-PhoP variant library, together with: 10 µM Mg2+; baseline: high Mg2+ state, higher = stronger signaling).

Repeated from above (block 2):
With `GGGAGUUCUACAGUCCGACGAUCUGCAGGGUCUGGGUAGCAGCUGGGCUUCCAGCUUUCUCCUUGCACCUGACUUGGGCUUUUUUCUCCUCACAGGAUGGGCCUUGACGGCAUUGGAAUUCUCGGGUGUCAAGG` the log2 enrichment was -0.107.
`GGGAGUUCUACAGUCCGACGAUCCAAGUCCUGUGCUACACAUCGUAUGUACCGAAUCGGGCCCGGCCCGGGCCCGGGGAAAGUAUUAUGUUACGCCGUUCGGAUCUGCACUUCUGGAAUUCUCGGGUGUCAAGG` gave a log2 enrichment of -0.466.
